Published values from different studies.
Each numbered part is a random draw from the data of one study; scales do not carry over between parts. Substitutions count along the parent as printed.

Study 1
Target: PABPC1L2, full length, GST fusion (mouse, UniProt A0ABA7IW68)
Technique: RNAcompete
Molecule type: RNA
Matrix: in vitro
Concentration: 20 nM
Setting: 7-mer, probes averaged, single round
Reference: mean of 7-mers
Reading: higher = stronger binding
Quantity: 7-mer Z-score
Residues (chain): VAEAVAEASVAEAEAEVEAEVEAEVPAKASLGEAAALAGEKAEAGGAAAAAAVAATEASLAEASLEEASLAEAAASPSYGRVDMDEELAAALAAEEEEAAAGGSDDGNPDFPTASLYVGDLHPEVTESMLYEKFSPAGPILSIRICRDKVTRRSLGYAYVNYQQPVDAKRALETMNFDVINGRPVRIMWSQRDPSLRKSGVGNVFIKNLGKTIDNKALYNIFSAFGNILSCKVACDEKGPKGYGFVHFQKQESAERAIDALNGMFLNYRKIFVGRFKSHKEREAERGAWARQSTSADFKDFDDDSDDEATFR
GGCACAC: 0.00436
GCCCACA: -0.429
UCCCUGA: -0.304
UAAUCAG: -0.208
UGUUAAU: -0.237
AAUGAAG: 0.3
GCUAUUG: -0.293
GGCACGA: 0.296
CGUAAGG: -0.202
GGGCGUC: 0.122
AAUUUUA: 0.133
ACUAAGU: -0.124
GCUACCU: -0.287
AUACGUC: -0.237
CCUACGU: -0.291
AGGUUCU: -0.311
GACUUUU: -0.235
GAAUGCU: -0.162
AAAAGUA: 5.64
UCAACGC: -0.15
GUGUGAC: 0.0207
GUCGUAC: -0.358
AAGGUUG: 0.135
AAAACUA: 4.1
CGGUCAU: 0.0243

Study 2
Target: CCNA2, cyclin fold, Cln2 fusion (human)
Technique: yeast growth competition, sequencing
Matrix: yeast
Setting: strong parent motif
Reference: not given
Reading: higher = stronger binding
Quantity: normalised enrichment score
Starting sequence: BRCA2 docking peptide (human); PSIKRNLLNEFDR
L8P: 0.292
D12Q: 5.05
P1L: 5.8
N6C: 4.8
R13W: 5.33
N9L: 5.33
L8Q: 3.45
I3A: 7.32
R13M: 4.78
E10V: 1.61
R5D: 1.09
L8R: 1.56
I3L: 4.67
D12F: 3.74
S2F: 3.34

Study 3
Target: Prothrombin, mature alpha-thrombin (F2, Homo sapiens, UniProt P00734)
Technique: aptamer microarray, sandwich
Molecule type: DNA with 2'F-ANA
Matrix: in vitro
Concentration: 200 nM
Setting: whole 15-mer aptamer, many near background
Added: Cy3 exosite-II aptamer, 400 nM
Reading: higher = stronger binding
Quantity: mean fluorescence intensity
Sequence: GGTTGGTGTGGTTGG
2'F-ANA at 4 6 9 10 11 12: 98.6 a.u.
2'F-ANA at 1 2 3 4 7 9 10 11 12 13 15: 64.7 a.u.
2'F-ANA at 1 2 8 9: 219 a.u.
2'F-ANA at 1 2 3 4 5 8 9 11 15: 53.5 a.u.
2'F-ANA at 2 3 5 6 7 8 14 15: 82.9 a.u.
2'F-ANA at 1 4 11 12 13: 182 a.u.
2'F-ANA at 4 6 9 10 11 12 13 15: 79 a.u.
2'F-ANA at 4 7 10 12 14 15: 63.7 a.u.
2'F-ANA at 1 2 3 7 9 10 11 14: 65.1 a.u.
2'F-ANA at 2 3 6 7 8 11 13 15: 564 a.u.
2'F-ANA at 1 2 3 4 5 7 8 9 10 11 12 13 15: 79.1 a.u.
2'F-ANA at 3 6 7 8 10 12 14: 405 a.u.
2'F-ANA at 1 2 3 4 5 7 8 9 12 13 14 15: 47.4 a.u.
2'F-ANA at 2 5 7 10 12 14 15: 48.9 a.u.
2'F-ANA at 1 2 5 9 10 11 13 14 15: 57.5 a.u.
2'F-ANA at 3 4 5 7 8 11 13 14: 50.2 a.u.
2'F-ANA at 1 2 5 7 9 10 12 13 14: 49.5 a.u.
2'F-ANA at 1 2 3 4 5 6 7 8 10 11 13 14: 48.7 a.u.
2'F-ANA at 2 4 6 8 10 13 14: 63.6 a.u.
2'F-ANA at 1 8 11: 193 a.u.
2'F-ANA at 1 3 4 6 8 9 11 12 13 14: 142 a.u.
2'F-ANA at 1 6 8 9 10 12 13: 80.2 a.u.
2'F-ANA at 1 4 5 6 8 11 12 14: 54 a.u.
2'F-ANA at 1 2 5 6 9 12 13 15: 69.1 a.u.
2'F-ANA at 2 8 10 11 14 15: 75.4 a.u.

Study 4
Target: ABI1, truncated, D143A, DHFR fusion (Arabidopsis thaliana)
Technique: DHFR PCA, deep sequencing
Matrix: yeast
Setting: methotrexate growth selection, single substitutions
Added: (+)-ABA 200 µM
Reference: wild-type fitted maximum
Reading: higher = stronger binding
Quantity: relative binding score
Starting sequence: PYL1, truncated, DHFR fusion (Arabidopsis thaliana); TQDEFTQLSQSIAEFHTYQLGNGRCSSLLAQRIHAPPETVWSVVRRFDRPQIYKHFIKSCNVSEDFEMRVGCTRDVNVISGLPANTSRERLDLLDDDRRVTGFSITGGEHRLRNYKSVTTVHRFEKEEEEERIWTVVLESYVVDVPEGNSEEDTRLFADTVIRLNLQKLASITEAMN
L93N: 65.6%
H16C: -5.27%
P36V: 80.3%
H16Y: -21.8%
V76E: 4.6%
E129D: 117%
V142H: 83.7%
E174G: 81.2%
V100L: 95.8%
A158V: 106%
R90H: 83.8%
E139S: 84%
F56D: -6.63%
S87G: 11.4%
E67F: 92.3%

Study 5
Target: Interferon regulatory factor 7, full length, phosphomimetic (IRF7, Homo sapiens, UniProt Q92985, residues 1-503, S101K/S471D/S472D/S475D/S476D/S477D/S483D/S484D/S487D)
Technique: protein-binding microarray
Molecule type: double-stranded DNA, one strand shown
Matrix: in vitro
Concentration: 250 nM
Setting: 60-bp whole probe
Added: salmon DNA 0.4 mg/ml
Reference: random background probes
Reading: higher = stronger binding
Quantity: log fluorescence
All sequences stand within: GCCTAGCAC … GTCTTGATTCGCTTGACGCTGCTG
Construct (chain): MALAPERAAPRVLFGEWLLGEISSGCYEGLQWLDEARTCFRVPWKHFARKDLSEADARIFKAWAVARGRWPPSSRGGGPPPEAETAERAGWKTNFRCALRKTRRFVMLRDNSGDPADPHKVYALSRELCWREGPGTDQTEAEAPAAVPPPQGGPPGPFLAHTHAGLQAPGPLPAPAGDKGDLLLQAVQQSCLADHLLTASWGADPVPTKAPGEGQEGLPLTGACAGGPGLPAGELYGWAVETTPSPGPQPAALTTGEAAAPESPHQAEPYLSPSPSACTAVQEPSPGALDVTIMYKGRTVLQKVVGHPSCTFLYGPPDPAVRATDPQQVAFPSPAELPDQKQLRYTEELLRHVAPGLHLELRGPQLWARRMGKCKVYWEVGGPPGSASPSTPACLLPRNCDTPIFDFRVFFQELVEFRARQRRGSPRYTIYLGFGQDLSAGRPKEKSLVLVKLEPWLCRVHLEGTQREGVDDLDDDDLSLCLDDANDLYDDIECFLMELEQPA
AACCATTTTGTTTTTCATTAGTGCTAG: 0.962 z-score
TTAGGTTTCCTTTCCGTTTAGTGCTAG: 4.66 z-score
TCAACTCTAATCTCACTCACTGTGCTA: 0.0755 z-score
GACGTTATCGGTTTCGGGACGTGCTAG: 3.6 z-score
TCACATTCACCTGTCGTACTGTGCTAG: 0.336 z-score
TCACTTTTGCTTTACTGACTGTGCTAG: 1.72 z-score
TTAGGACTGAACTATCGGTTAGTGCTA: -0.111 z-score
TCAGCTATCACTATTCTACTGTGCTAG: -0.522 z-score
GATTCTCCTGCCTCAGCCTCGTGCTAG: 1.3 z-score
TCGGTTTCCAAATTGTCTCTGTGCTAG: 6.86 z-score
TTAGACCTCAGTATCGATTAGTGCTAG: 1.07 z-score
TCAGGTCTCCCTTGAGGACTGTGCTAG: -0.157 z-score
TCAATTTTTGCTTACGAACTGTGCTAG: 0.118 z-score
CTTGCTTTTTAGATCGTCCCGTGCTAG: 0.484 z-score
TTAGGGTTCCTTTCCCTTTAGTGCTAG: 1.1 z-score
GACGGGCTCCTACTGCTGACGTGCTAG: -0.644 z-score
GACGGTTTCGGGCCTGGGGACGTGCTA: 2.07 z-score
TTGGGTCTCCTTCTCCTTTAGTGCTAG: 0.16 z-score

A few entries again (study 3):
2'F-ANA at 1 2 8 9: 219 a.u.
2'F-ANA at 1 2 5 9 10 11 13 14 15: 57.5 a.u.
2'F-ANA at 1 2 3 4 5 7 8 9 10 11 12 13 15: 79.1 a.u.
2'F-ANA at 3 4 5 7 8 11 13 14: 50.2 a.u.
2'F-ANA at 3 6 7 8 10 12 14: 405 a.u.
2'F-ANA at 1 4 5 6 8 11 12 14: 54 a.u.
2'F-ANA at 1 2 3 4 7 9 10 11 12 13 15: 64.7 a.u.
2'F-ANA at 1 2 3 4 5 8 9 11 15: 53.5 a.u.
2'F-ANA at 1 2 3 4 5 7 8 9 12 13 14 15: 47.4 a.u.
2'F-ANA at 2 4 6 8 10 13 14: 63.6 a.u.
2'F-ANA at 1 4 11 12 13: 182 a.u.
2'F-ANA at 2 3 6 7 8 11 13 15: 564 a.u.
2'F-ANA at 4 6 9 10 11 12: 98.6 a.u.
